Measurements from different studies.
Parts stem from different laboratories: compare values within a part only. Values joined by “and” are separate records of one study, mostly repeats; a detail may differ. Changes are numbered by the printed parent chain.
UniProt Q96RG2, sequence (whole entry, looked up): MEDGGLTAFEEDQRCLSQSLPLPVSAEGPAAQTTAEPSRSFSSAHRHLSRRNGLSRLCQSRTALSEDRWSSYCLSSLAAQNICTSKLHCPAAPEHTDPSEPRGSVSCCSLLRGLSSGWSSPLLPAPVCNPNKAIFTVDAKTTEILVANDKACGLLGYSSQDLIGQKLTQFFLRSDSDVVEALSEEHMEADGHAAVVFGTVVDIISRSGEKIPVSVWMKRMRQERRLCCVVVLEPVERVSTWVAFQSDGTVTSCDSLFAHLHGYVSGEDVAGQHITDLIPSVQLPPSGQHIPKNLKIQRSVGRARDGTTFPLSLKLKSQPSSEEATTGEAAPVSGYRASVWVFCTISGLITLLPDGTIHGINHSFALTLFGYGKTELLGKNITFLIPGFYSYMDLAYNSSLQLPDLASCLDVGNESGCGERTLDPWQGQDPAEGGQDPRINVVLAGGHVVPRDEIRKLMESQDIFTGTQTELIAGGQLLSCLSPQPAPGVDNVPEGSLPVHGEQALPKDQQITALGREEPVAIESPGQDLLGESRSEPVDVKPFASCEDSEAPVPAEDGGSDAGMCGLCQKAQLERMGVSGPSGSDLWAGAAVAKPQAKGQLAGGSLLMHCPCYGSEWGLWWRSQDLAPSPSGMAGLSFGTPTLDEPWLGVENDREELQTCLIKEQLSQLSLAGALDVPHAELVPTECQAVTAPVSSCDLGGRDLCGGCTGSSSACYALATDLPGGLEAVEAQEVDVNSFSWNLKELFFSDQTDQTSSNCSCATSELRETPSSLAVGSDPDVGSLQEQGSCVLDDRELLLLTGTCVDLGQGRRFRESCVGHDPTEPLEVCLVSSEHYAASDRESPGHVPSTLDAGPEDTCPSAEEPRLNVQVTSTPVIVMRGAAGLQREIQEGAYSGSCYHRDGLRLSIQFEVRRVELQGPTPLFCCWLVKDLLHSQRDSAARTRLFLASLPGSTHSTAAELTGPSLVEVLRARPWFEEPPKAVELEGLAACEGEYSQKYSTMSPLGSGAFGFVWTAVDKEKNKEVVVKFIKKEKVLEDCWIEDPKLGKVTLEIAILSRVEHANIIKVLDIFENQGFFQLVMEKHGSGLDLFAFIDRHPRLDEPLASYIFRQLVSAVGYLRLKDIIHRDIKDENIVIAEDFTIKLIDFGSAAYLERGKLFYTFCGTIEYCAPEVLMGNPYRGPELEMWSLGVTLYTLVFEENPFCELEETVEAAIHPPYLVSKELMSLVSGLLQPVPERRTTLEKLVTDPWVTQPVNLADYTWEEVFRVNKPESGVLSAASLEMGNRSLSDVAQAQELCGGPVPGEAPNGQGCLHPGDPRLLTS
UniProt P29376, sequence (whole entry, looked up): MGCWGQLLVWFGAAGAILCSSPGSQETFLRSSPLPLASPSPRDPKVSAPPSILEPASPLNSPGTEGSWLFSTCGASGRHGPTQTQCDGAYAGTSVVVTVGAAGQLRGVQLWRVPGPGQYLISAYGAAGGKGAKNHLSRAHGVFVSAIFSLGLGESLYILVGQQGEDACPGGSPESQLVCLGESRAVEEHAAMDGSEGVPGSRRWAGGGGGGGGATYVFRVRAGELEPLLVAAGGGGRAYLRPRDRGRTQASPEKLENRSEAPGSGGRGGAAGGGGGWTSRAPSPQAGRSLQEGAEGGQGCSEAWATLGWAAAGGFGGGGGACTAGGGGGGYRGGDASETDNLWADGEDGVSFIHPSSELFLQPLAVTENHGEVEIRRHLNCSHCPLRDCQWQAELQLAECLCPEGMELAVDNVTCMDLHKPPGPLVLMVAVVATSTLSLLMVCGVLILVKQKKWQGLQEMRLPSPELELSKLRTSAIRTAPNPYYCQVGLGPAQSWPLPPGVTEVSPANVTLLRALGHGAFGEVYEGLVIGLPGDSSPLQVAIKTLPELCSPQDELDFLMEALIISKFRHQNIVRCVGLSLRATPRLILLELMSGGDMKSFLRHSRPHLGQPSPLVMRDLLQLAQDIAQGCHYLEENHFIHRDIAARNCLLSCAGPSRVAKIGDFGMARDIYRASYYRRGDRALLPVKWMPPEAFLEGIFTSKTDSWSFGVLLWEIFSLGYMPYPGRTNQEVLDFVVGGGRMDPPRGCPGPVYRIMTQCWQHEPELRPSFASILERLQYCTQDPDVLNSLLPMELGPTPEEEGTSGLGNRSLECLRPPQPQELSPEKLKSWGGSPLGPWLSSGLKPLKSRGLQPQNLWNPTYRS
UniProt Q9UM73, sequence (whole entry, looked up): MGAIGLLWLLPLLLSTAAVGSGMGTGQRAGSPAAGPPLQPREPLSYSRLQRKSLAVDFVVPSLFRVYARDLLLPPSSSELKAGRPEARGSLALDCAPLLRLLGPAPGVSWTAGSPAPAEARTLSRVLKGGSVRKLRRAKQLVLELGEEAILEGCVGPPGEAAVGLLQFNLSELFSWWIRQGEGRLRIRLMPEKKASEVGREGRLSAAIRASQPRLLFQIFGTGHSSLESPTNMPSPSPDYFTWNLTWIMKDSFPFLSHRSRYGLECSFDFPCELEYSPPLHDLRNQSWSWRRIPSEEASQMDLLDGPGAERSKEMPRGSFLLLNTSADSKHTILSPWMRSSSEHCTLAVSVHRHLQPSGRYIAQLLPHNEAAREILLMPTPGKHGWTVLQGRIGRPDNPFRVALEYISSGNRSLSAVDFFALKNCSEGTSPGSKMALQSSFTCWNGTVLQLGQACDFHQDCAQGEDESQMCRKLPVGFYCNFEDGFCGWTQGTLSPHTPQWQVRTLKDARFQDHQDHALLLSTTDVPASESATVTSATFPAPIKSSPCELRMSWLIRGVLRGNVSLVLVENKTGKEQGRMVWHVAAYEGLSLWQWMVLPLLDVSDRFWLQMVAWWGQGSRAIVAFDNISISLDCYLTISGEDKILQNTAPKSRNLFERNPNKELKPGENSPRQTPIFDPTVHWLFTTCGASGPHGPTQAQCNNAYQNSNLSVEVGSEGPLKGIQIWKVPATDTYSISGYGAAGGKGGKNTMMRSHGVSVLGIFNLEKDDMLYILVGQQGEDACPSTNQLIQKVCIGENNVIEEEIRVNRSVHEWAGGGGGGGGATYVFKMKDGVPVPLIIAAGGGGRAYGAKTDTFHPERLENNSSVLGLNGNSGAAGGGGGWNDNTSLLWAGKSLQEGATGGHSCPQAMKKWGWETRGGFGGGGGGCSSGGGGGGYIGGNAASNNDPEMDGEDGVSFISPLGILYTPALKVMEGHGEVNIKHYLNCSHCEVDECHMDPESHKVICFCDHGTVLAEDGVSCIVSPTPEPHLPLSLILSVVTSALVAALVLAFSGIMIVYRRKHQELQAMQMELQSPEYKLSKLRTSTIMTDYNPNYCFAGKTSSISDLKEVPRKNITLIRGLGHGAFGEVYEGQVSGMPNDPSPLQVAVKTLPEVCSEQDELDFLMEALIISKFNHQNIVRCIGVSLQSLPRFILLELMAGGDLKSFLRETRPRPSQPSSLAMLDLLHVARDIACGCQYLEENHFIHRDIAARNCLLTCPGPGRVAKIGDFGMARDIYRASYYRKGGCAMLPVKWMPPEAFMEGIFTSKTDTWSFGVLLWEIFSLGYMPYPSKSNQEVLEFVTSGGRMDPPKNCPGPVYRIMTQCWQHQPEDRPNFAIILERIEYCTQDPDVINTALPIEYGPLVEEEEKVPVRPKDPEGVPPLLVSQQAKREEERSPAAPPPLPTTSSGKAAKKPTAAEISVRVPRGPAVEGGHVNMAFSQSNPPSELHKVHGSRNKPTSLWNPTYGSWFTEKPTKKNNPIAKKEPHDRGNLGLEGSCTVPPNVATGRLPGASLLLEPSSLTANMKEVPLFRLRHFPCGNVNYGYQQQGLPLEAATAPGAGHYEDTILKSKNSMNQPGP
UniProt Q08881, sequence (whole entry, looked up): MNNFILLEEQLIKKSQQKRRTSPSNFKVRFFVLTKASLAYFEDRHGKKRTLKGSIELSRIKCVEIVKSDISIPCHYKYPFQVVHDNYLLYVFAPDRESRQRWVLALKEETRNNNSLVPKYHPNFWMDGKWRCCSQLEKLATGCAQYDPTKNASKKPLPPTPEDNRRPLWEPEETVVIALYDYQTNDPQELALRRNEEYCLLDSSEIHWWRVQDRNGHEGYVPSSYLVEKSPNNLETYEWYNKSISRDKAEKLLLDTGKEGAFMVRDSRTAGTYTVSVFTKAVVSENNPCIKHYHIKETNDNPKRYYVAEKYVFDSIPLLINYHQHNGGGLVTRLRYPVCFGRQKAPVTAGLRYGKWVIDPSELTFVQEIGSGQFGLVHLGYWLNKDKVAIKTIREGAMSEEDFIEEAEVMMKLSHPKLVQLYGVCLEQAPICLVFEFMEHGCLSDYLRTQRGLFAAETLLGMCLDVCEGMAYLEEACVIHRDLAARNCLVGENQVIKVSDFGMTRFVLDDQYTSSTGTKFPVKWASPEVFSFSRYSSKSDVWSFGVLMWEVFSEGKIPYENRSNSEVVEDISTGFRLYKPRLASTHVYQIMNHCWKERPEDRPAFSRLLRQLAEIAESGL

Set 1 — target: tungstate, free oxyanion; technique: microfluidic competitive inhibition; sample: in vitro, cell-free expressed; concentration: not given; direction: lower = stronger binding
Setting: derived from inhibition constants, unchanged parent 2230 nM
Parent: PafA, mature enzyme, eGFP fusion (Elizabethkingia meningoseptica, UniProt Q9KJX5); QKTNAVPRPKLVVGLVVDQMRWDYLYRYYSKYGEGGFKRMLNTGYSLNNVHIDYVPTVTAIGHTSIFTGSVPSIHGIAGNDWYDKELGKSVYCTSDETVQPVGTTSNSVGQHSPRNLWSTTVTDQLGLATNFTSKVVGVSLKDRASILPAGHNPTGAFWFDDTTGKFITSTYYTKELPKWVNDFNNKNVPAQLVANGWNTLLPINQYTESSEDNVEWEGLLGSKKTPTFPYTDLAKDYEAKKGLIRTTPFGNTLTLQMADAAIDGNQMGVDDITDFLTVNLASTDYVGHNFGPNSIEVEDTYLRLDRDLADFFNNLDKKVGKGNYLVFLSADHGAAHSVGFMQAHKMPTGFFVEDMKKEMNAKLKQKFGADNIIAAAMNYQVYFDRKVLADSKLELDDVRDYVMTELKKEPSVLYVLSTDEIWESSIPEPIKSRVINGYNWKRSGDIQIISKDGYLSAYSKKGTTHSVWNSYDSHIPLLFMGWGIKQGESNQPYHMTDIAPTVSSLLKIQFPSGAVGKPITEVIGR
| Change | oxyanion analog dissociation constant [µM] |
| --- | --- |
| T228V | 2.33 |
| D213V | 1.2 |
| I52V | 3.01 |
| Q492V | 2.51 |
| I296V | 3.21 |
| D233G | 2.03 |
| A375V | 2.3 |
| K357G | 2.31 |

Set 2 — observed: binding; technique: radioligand binding; concentration: 10 µM
Target: Mu-type opioid receptor (OPRM1, Homo sapiens, UniProt P35372)
UniProt P35372, sequence (whole entry, looked up): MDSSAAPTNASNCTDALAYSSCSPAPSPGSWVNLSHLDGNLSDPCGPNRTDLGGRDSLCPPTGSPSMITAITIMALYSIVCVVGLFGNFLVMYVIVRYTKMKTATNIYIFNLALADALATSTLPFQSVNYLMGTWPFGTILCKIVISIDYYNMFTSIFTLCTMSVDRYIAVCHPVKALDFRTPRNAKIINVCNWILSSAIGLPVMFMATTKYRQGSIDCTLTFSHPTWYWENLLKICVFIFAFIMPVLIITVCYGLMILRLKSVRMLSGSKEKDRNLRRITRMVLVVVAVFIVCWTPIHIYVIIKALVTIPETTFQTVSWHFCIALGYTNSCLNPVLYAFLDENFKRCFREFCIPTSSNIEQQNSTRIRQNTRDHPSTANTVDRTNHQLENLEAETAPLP
| Structure (SMILES) | inhibition [%] |
| --- | --- |
| CNC(=O)Nc1ccc2c(c1)[C@]1(CC2)OC(=O)N(CC(=O)N(Cc2ccc(F)cc2)[C@@H](C)C(F)(F)F)C1=O | -5.11 |
| C[C@H](NC(=O)c1cnc2n1[C@](C)(Cc1ccc(C#N)cc1)C(=O)N2c1cc(Cl)c(F)c(Cl)c1)C(=O)NC1(c2ccccn2)CC1 | 17.4 |
| Nc1c(C(=O)NCc2ccc(C(=O)NCCCC3CCCCC3)cc2)cnn1-c1ccccc1 | 41.2 |
| O=C(O)c1cc(-c2ccc(C3CCNCC3)cc2)c2ccc(-c3ccc(C(F)(F)F)cc3)cc2c1 | 19.3 |
| O[C@]1(C(F)(F)F)CCCC[C@H]1Nc1ccc(F)cc1 | 6.05 |
| C[C@@H]1CN(c2cc(-c3nn(C)c4ccc(OC5(C)CC5)cc34)ncn2)C[C@H](C)O1 | 13.2 |
| CS(=O)(=O)NCC[C@H](NC(=O)c1cncc2c1cnn2-c1ccc(F)cc1)c1ccnc(S(C)(=O)=O)c1 | -0.92 |
| Cc1nc(Cc2cccc(C(F)(F)F)c2)sc1-c1ccc(C(N)=O)nc1 | 5.75 |
| CN(C)C(=O)Cn1cc(-c2nc([C@@](C)(c3ccc(-c4cnc(N)nc4)cc3)C3CC3)no2)cn1 | 4.55 |
| O=C(NC[C@@H]1[C@H]2CN(C(=O)OCc3cc(C(F)(F)F)cc(C(F)(F)F)c3)C[C@@H]12)c1ccc2[nH]nnc2c1 | 43 |
| CC1=C(C#N)C(c2ccc3c(c2)c(NC(=O)c2ccccc2C)nn3C)C(C#N)=C(C)N1 | 13.7 |
| COc1cccc(CNC(=O)c2nc3scc(COCc4ccc(C(=O)O)cc4)c3c(=O)[nH]2)c1 | -3.34 |
| O=C(Nc1cccnn1)N1CCC(=Cc2cccc(Oc3ccc(C(F)(F)F)cn3)c2)CC1 | 17.5 |
| O=C1c2ccc(Nc3ccc(F)cc3F)cc2CCc2ccc(OC[C@H](O)CO)cc21 | 22.5 |
| CN1CCN(C(=O)C(C)(C)c2ccc(C(=O)Nc3cn4cc(-c5ccncc5)ccc4n3)cc2)CC1 | 5.33 |
| C[C@@]1(Cc2ccc(C#N)cc2)C(=O)N(c2cc(Cl)cc(Cl)c2)c2ncc(C(=O)NC3(c4nc(C5CCC5)no4)CC3)n21 | 31.1 |
| CNC(=O)c1ccc(Nc2ncc(C(F)(F)F)c(NCc3nccnc3N(C)S(C)(=O)=O)n2)cc1 | -10.7 |
| CN1C(=O)[C@@H](N2CCc3cn(Cc4ccccc4)nc3C2=O)COc2ccccc21 | 10.6 |
| CN([C@@H]1CCc2c(CC(=O)O)c3cc(S(C)(=O)=O)ccc3n2C1)S(=O)(=O)c1ccc(F)cc1 | 7.34 |
| O=C([C@H]1C[C@H](O)CN1c1ccc(Cl)cc1)N1CC2COCC(C1)N2Cc1ccc(Cl)cc1 | 4.45 |
| Cc1cc(C)c(-n2ccn3nc(-c4cccnc4)cc23)cc1NC(=O)c1cc(C#N)cc(S(F)(F)(F)(F)F)c1 | 20.7 |
| COCc1nc2cnc3cc(-c4c(C)noc4C)c(OC[C@H]4CCNC4)cc3c2n1[C@H](C)c1ccccc1 | 16.9 |
| CNC(=O)c1cc(C(=O)NC2CC2)cn(Cc2ccccc2)c1=O | 13.5 |
| CC1=C(C#N)[C@@H](c2ccc3[nH]nc(C)c3c2)C(C#N)=C(c2ccc(Cl)cc2)N1 | -0.0207 |
| CCCOc1ccc([C@H]2[C@H](C(=O)O)[C@@H](c3ccc4c(c3)OCO4)CN2CC(=O)Nc2c(CC)cccc2CC)cc1 | 6.79 |

Set 3 — target: CCNB1, cyclin fold, Cln2 fusion (human); technique: yeast growth competition, sequencing; sample: yeast; setting: strong parent motif; baseline: not given; direction: higher = stronger binding
Parent: viral docking peptide; TSVRRALFTGGSD; partner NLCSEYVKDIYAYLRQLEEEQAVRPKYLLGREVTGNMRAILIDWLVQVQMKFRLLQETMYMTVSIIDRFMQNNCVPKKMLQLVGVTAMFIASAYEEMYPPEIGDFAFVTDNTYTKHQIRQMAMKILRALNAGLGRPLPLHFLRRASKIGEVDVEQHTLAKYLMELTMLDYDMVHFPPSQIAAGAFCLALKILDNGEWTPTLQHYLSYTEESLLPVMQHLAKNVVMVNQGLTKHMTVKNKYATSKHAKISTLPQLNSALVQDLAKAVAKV
| Change | normalised enrichment score |
| --- | --- |
| TSVRRALFTGWSD [G11W] | 0.948 |
| TSVRIALFTGGSD [R5I] | 0.873 |
| TEVRRALFTGGSD [S2E] | 2.45 |
| TSVRRALSTGGSD [F8S] | 0.0236 |
| TSVRAALFTGGSD [R5A] | 0.569 |
| TSVARALFTGGSD [R4A] | 1.23 |
| TSVRRALFTGISD [G11I] | 1.87 |
| TSVRRALFTDGSD [G10D] | 3.8 |

Set 4
SMILES: O=C(c1cc(Cc2n[nH]c(=O)c3ccccc23)ccc1F)N1CCN(C(=O)C2CC2)CC1
| cell line | concentration | clonogenic survival |
| --- | --- | --- |
| CAPAN-1 (BRCA2-mutant) | 0.5 µM | 22.3% and 33.3% |
| CAPAN-1 BRCA2-corrected | 0.25 µM | 90.3% and 72.6% |
| CAPAN-1 BRCA2-corrected | 1 µM | 87.1% and 52% |

Set 5 — cell line: HEK-293T/ACE2; concentration: concentration not given; baseline: vehicle
| Molecule | nuclei number |
| --- | --- |
| Tyloxapol | 99.8% |
| Aprotinin | 100% |
| benzalkonium chloride | 91.3% |

Set 6 — observed: enzyme activity; mode: inhibitor; concentration: 0.5 µM; baseline: control
Compound: N/C(=N\[N+](=O)[O-])N/N=C\c1ccc(-c2cccc([N+](=O)[O-])c2)o1
| target | remaining activity [%] |
| --- | --- |
| Tyrosine-protein kinase ITK/TSK (ITK, Homo sapiens, UniProt Q08881) | 99.5 |
| Serine/threonine-protein kinase MRCK alpha (CDC42BPA, Homo sapiens, UniProt Q5VT25) | 87.3 |
| PAS domain-containing serine/threonine-protein kinase (PASK, Homo sapiens, UniProt Q96RG2) | 88.4 |
| Tyrosine-protein kinase Fgr (FGR, Homo sapiens, UniProt P09769) | 90.9 |
| ALK tyrosine kinase receptor (ALK, Homo sapiens, UniProt Q9UM73) | 93.6 |

Further values, each from its own experiment
| SMILES | target or system | assay | test system | conditions | how to read | endpoint | value |
| --- | --- | --- | --- | --- | --- | --- | --- |
| CNC(=O)c1ccc(-c2cnn3ccc(C(=O)N(C)c4ccc(Cl)c(C(=O)OC)c4)cc23)cc1 | Cryptosporidium parvum | – | neonatal calf | day 0 | direction not given | faecal consistency score | 3 |
| Oc1ccc(C2NCc3ccccc3-n3cccc32)cc1Cl (stereo not shown) | – | – | mouse, microsomes or S9 | 2 µM, 0.5 h | – | remaining compound | 20.6% |
| C=CC(=O)N1CCC[C@@H](n2nc(-c3ccc(Oc4ccccc4)cc3)c3c(N)ncnc32)C1 | Leukocyte tyrosine kinase receptor (LTK, Homo sapiens, UniProt P29376) | enzyme activity, inhibitor | – | 1 µM | – | inhibition | 25% |

Repeated from above (set 2):
| Structure (SMILES) | inhibition [%] |
| --- | --- |
| C[C@H](NC(=O)c1cnc2n1[C@](C)(Cc1ccc(C#N)cc1)C(=O)N2c1cc(Cl)c(F)c(Cl)c1)C(=O)NC1(c2ccccn2)CC1 | 17.4 |
| CC1=C(C#N)[C@@H](c2ccc3[nH]nc(C)c3c2)C(C#N)=C(c2ccc(Cl)cc2)N1 | -0.0207 |
| CN(C)C(=O)Cn1cc(-c2nc([C@@](C)(c3ccc(-c4cnc(N)nc4)cc3)C3CC3)no2)cn1 | 4.55 |
| COCc1nc2cnc3cc(-c4c(C)noc4C)c(OC[C@H]4CCNC4)cc3c2n1[C@H](C)c1ccccc1 | 16.9 |
| CN([C@@H]1CCc2c(CC(=O)O)c3cc(S(C)(=O)=O)ccc3n2C1)S(=O)(=O)c1ccc(F)cc1 | 7.34 |
| CN1CCN(C(=O)C(C)(C)c2ccc(C(=O)Nc3cn4cc(-c5ccncc5)ccc4n3)cc2)CC1 | 5.33 |
